Results of several laboratories.
A part holds a random share of what one study measured. Positions count from the first letter of the parent shown.

Series 1
Target: CCNE2, cyclin fold, Cln2 fusion (human)
Method: yeast growth competition, sequencing
Sample: yeast
Setting: strong parent motif
Relative to: not given
Reading: higher = stronger binding
Starting sequence: RBL1 docking peptide (human); GSAKRRLFGEDPP
Variant | normalised enrichment score
GSPKRRLFGEDPP [A3P] | 0.682
GSAKIRLFGEDPP [R5I] | -0.0361
QSAKRRLFGEDPP [G1Q] | 4.09
GSAKRRLFGIDPP [E10I] | 3.18
GSGKRRLFGEDPP [A3G] | 0.867
GSAKRRLFGEDGP [P12G] | 3.89
GSAKRRLFGDDPP [E10D] | 4.85
GSAKRRLIGEDPP [F8I] | 0.616
GSAKRRLFGEDPM [P13M] | 3.92
GSASRRLFGEDPP [K4S] | 1.18

Series 2
Target: Ras GTPase-activating protein-binding protein 1, full length (G3BP1, Homo sapiens, UniProt Q13283)
Sequence of UniProt Q13283 (whole entry, looked up): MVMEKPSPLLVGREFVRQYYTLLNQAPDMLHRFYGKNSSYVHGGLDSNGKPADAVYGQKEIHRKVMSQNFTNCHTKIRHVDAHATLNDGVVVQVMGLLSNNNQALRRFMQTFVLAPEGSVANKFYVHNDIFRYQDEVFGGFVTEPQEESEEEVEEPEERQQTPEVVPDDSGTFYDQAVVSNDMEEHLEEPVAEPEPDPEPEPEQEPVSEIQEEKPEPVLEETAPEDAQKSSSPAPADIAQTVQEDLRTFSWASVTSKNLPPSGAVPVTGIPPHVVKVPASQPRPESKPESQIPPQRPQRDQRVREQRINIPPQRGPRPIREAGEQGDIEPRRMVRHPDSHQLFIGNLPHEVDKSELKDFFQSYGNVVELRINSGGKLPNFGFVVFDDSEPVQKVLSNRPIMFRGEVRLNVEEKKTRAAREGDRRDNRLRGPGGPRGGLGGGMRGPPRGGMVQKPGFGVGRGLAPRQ
Method: RNA Bind-n-Seq
Form: RNA
Sample: in vitro
Concentration: 200 nM
Setting: whole 134-nt RNA, ends assumed
Added: 150 mM LiCl
Relative to: input library
Reading: higher = stronger binding
Each molecule: 7-deaza-guanosine replaces G
Oligonucleotide | log2 enrichment
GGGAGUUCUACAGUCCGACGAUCACCAUACUUGACAACUUCUGAUUGAAUGCCCAUGCCCAAUGCCAACAUCCACGAACGCCAAUGACCAAUGCAGUACAAUGCCAGUGUUUCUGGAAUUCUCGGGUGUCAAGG | 0.606
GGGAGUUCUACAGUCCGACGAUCUCCUGUGCUACACAUCGUAUGUACCGAAUCGGAAAAAAGGGAAAAAAGGAAAAAAGGGGAAAGUAUUAUGUUACGCCGUUCGGAUCUGCAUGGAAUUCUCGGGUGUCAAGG | -0.792
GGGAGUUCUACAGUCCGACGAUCGCAGGAAGUAAAAACAAAUGGAAAUGCUUCGGAUAGUGGCAGGGGUGGGGGUUGCUAAGGAAAGGGUGGGAUGGGAGUGGGUAAAGAAAAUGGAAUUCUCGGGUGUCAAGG | -0.211
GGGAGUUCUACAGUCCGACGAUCCAAGUCCUGUGCUACACAUCGUAUGUACCGAAUCGGGUUUUUGGGUGGGAAAGGGAAAGUAUUAUGUUACGCCGUUCGGAUCUGCACUUCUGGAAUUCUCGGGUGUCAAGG | -0.0449
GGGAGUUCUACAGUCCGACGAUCCACAGACAACACGCACCCACACAGACACAGAGGGAAGGGGUUGGGAUGGGGACAGGGUGCACAGCAGGGCGGGGUAGGACCCCAUCCCCUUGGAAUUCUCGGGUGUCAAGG | -0.906
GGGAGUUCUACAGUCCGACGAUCAGUCCUGUGCUACACAUCGUAUGUACCGAAUCGGGGAAAGGGGAAAAAGGGGUGGGGAAAGUAUUAUGUUACGCCGUUCGGAUCUGCACUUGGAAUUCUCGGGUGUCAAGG | 0.147

Series 3
Target: Interferon regulatory factor 7, full length, phosphomimetic (IRF7, Homo sapiens, UniProt Q92985, residues 1-503, S471D/S472D/S475D/S476D/S477D/S483D/S484D/S487D)
Method: protein-binding microarray
Form: double-stranded DNA, one strand shown
Sample: in vitro
Concentration: 2200 nM top
Setting: 60-bp whole probe
Added: salmon DNA 0.4 mg/ml
Relative to: random background probes
Reading: higher = stronger binding
Constant ends, left off below: GCCTAGCAC … GTCTTGATTCGCTTGACGCTGCTG
Target sequence (chain): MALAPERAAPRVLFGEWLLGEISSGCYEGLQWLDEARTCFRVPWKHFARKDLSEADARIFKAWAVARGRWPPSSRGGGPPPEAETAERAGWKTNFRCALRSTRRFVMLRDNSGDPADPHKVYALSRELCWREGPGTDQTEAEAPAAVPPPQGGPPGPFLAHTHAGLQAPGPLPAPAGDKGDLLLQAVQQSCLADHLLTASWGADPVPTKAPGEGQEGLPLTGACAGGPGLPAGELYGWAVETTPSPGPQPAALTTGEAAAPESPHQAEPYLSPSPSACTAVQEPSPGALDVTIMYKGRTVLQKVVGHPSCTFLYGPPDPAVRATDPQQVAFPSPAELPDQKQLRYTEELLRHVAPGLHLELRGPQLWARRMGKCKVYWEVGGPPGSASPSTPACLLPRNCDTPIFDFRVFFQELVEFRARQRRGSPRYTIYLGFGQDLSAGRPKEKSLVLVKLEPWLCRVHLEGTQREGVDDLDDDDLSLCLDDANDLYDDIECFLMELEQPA
Oligonucleotide | fitted relative affinity
ACTCGTGACCCTCTCAAAGGGTGCTAG | 0.117 z-score
TCAACACTAGTTTTCATACTGTGCTAG | 1.27 z-score
GACGGGCTGGGTCTCGGGACGTGCTAG | -0.999 z-score
GACGATATCGGGCCTGGAGACGTGCTA | -0.45 z-score
GACGGACTGGGTCTCGGGAGGTGCTAG | -0.791 z-score
TGAGAACTGAGTATCGATTAGTGCTAG | -0.314 z-score
TCACTTTCCACTTGTCTTACTGTGCTA | 9.33 z-score
TAAATTCTGAAAATGGAAACGTGCTAG | -0.557 z-score
GACGGACTGGGGTATCGGTACGTGCTA | -0.604 z-score
GACGATATCGGTATCGAGACGTGCTAG | 0.382 z-score

Series 4
Target: Histone acetyltransferase KAT6A, both winged helices, GST fusion (KAT6A, Homo sapiens, UniProt Q92794, residues 1-181)
Method: protein binding microarray
Form: double-stranded DNA, one strand shown
Sample: in vitro
Concentration: not given
Setting: 8-mer, flanks averaged, mean of 2 arrays, mostly near background
Relative to: not given
Reading: higher = stronger binding
Residues (chain): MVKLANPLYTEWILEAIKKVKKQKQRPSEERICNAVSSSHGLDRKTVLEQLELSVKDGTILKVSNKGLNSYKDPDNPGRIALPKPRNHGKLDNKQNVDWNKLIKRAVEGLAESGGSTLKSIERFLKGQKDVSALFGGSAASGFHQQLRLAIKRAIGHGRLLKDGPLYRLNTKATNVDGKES
Oligonucleotide | E-score
ACAGTTGG | -0.0493
ATCCTTTG | -0.0679
ATGCGACC | 0.196
CGCCTCAA | 0.0747
AGTTCCAT | -0.0761
CTATGTTA | 0.00647
ACAAAGCG | 0.18
CTTGTTTC | -0.213
AACCCTCT | -0.17
CCTACTTA | -0.214
ACGGTTCG | 0.171
GCATAAGA | -0.0695
CGTCAAAC | 0.183

A few entries again (series 1):
Variant | normalised enrichment score
GSGKRRLFGEDPP [A3G] | 0.867
GSAKRRLFGEDGP [P12G] | 3.89
GSAKRRLFGDDPP [E10D] | 4.85
GSAKRRLIGEDPP [F8I] | 0.616
